Assay results of several laboratories.
A part holds a random share of what one study measured. Several values in a cell are separate wells, animals, samples, runs or records.
Sequence of UniProt O15075 (whole entry, looked up): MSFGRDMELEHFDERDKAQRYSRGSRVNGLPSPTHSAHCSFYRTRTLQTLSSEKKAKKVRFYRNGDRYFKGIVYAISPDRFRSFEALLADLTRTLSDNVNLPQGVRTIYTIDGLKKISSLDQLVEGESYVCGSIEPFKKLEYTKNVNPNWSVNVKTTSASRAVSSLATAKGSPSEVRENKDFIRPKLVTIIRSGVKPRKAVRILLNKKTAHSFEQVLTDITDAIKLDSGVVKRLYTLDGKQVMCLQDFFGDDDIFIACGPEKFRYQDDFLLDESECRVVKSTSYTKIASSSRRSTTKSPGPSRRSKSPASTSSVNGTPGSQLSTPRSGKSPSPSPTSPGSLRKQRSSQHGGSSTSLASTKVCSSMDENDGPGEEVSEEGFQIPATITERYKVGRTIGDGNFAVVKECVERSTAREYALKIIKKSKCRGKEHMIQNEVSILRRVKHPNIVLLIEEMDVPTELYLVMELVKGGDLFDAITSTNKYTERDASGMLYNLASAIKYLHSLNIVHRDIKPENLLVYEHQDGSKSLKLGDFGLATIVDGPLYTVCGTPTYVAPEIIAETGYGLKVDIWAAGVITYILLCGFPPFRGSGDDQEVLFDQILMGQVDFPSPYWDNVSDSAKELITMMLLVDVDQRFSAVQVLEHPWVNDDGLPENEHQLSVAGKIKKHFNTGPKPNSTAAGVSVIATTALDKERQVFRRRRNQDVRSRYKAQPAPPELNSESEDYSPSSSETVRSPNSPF
Sequence of UniProt Q02156 (whole entry, looked up): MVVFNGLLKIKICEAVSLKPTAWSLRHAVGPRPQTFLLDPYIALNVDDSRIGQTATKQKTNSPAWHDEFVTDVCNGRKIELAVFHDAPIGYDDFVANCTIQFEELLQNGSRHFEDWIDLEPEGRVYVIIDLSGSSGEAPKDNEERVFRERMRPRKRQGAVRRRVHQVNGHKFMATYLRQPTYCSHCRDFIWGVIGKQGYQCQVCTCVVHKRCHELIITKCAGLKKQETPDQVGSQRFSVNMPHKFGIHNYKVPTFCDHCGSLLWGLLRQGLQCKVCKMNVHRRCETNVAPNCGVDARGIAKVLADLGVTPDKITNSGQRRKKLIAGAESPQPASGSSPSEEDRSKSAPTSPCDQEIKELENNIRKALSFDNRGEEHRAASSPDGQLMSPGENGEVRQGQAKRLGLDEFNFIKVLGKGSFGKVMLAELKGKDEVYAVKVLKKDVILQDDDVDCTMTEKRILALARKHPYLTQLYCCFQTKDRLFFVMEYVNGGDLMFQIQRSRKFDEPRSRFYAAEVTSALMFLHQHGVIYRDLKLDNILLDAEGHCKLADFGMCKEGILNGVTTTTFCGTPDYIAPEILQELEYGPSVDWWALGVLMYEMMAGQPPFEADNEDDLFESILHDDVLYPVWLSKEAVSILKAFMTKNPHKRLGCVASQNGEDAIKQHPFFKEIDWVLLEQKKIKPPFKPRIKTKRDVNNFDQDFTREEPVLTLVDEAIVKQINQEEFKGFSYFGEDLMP
Sequence of UniProt Q9P0L2 (whole entry, looked up): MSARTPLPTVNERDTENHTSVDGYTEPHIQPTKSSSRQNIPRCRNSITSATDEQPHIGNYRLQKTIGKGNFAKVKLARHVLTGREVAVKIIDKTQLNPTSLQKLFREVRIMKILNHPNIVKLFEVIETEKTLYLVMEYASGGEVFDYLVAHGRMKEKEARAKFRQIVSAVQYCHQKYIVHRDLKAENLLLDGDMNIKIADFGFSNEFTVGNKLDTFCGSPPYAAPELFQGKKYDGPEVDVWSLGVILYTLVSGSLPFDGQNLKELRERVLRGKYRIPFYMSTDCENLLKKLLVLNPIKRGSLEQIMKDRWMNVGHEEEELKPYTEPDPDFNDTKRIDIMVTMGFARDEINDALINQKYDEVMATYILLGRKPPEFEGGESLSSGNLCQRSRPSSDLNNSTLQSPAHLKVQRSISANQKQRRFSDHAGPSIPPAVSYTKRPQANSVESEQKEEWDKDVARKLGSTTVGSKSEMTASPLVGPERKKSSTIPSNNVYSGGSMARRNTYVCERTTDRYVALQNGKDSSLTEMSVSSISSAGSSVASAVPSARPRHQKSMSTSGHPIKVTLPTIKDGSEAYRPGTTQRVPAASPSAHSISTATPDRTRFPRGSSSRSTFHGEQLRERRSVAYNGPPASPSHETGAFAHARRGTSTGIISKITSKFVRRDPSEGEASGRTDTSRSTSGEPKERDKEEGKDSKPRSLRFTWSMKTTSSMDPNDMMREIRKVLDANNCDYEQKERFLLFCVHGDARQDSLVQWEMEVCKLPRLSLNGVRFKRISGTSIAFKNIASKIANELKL
Sequence of UniProt Q15569 (whole entry, looked up): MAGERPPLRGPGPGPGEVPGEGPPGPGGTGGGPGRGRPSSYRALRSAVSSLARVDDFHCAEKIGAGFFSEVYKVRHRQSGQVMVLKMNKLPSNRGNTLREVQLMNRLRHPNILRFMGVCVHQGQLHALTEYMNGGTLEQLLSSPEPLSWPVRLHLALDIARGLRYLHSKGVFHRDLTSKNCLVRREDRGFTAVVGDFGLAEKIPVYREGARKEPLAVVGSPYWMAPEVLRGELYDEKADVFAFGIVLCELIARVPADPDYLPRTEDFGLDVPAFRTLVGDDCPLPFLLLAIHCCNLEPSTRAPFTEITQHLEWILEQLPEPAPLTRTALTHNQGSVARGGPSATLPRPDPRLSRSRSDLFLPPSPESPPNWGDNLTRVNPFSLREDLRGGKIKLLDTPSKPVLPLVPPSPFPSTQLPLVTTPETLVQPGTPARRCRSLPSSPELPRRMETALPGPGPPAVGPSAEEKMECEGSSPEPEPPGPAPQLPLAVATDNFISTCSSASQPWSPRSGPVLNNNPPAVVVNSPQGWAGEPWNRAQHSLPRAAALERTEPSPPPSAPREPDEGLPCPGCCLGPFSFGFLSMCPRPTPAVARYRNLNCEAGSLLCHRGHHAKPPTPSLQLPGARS
Sequence of UniProt Q9UEE5 (whole entry, looked up): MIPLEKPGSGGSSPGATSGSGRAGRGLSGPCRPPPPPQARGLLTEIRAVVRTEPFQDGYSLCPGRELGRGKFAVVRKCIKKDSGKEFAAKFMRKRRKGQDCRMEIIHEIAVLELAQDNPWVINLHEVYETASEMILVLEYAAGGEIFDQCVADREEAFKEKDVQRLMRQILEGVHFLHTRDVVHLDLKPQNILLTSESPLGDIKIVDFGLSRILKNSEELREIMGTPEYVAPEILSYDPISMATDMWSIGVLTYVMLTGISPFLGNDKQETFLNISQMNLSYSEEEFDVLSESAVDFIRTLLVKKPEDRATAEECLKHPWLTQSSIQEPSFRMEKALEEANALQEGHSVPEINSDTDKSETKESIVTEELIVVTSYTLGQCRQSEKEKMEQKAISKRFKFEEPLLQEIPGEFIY

Block 1
SMILES: COc1ccc(-c2c(Nc3ccccn3)[nH]c3c(C4=CCCCC4)c(-c4ccccc4)nn3c2=O)cc1
Matrix: plasma
Route: oral
Endpoint: plasma concentration, geometric mean
cancer patients; 150 mg, 2 h post-dose, single dose: 1160 ng/mL
cancer patients; 150 mg, 72 h post-dose, single dose: 202 ng/mL
human patients; 400 mg once daily, 3 h, cycle 1: 3180 ng/mL
cancer patients; 200 mg, 3 h post-dose, single dose: 1140 ng/mL
human patients; 400 mg once daily, 8 h, cycle 1: 2700 ng/mL
cancer patients; 100 mg, 1 h post-dose, single dose: 135 ng/mL
LC-MS/MS; human; 200 mg twice daily, 4 h, single dose: 1400 ng/mL
human patients; 400 mg once daily, 0.5 h, cycle 1: 2340 ng/mL
cancer patients; 400 mg, 72 h post-dose, single dose: 53.2 ng/mL
human patients; 150 mg once daily, 24 h, cycle 1: 3210 ng/mL
human patients; 400 mg once daily, 2 h, cycle 1: 2810 ng/mL

Block 2
Cell line: mouse MPNST tumor cells
Method: high-content nuclear imaging
Item: cell number
Tested at: 10 µM
Time: 12 h
Notes: mean of 2 replicates
Relative to: plate mean
Direction: higher = more cells
Endpoint: nuclei count
COc1cc(/C=C2\CCCN([C@@H](C)c3ccc(F)cc3)C2=O)ccc1-n1cnc(C)c1: 3.89 z-score
CC(=O)NS(=O)(=O)c1ccc(N)cc1: 0.27 z-score
CO[C@@H]1[C@@H](OC(N)=O)[C@@H](O)[C@H](Oc2ccc3c(O)c(NC(=O)c4ccc(O)c(CC=C(C)C)c4)c(=O)oc3c2C)OC1(C)C: 0.332 z-score
CC(=O)Oc1cc(C(C)C)c(OCCN(C)C)cc1C: 1.99 z-score
CN1CCC(Nc2ncc3ncnc(Nc4ccc(F)c(Cl)c4)c3n2)CC1: 0.882 z-score
COc1ccc(Cl)c(Nc2ncnc3cc(OCC4CCN(C)CC4)c(OC)cc23)c1: -1.51 z-score
NC(Cc1cc(I)c(Oc2cc(I)c(O)c(I)c2)c(I)c1)C(=O)O (stereo not drawn): -0.144 z-score
CCOc1ccc(-n2c(C(C)N(Cc3cccnc3)C(=O)Cc3ccc(OC(F)(F)F)cc3)nc3ncccc3c2=O)cc1 (stereo not drawn): 3.68 z-score
NCCNC(=O)c1ccc(Cl)cn1: 0.854 z-score
N#Cc1cc(F)c(C(=O)Nc2ccnc(NC(=O)[C@H]3C[C@H]3F)c2)c(Cl)c1: 2.83 z-score
CC(C)[C@H](CO)Nc1nc(Nc2ccc(C(=O)O)c(Cl)c2)c2ncn(C(C)C)c2n1: 0.131 z-score
CN(C/C=C/c1ccccc1)Cc1cccc2ccccc12: 1.58 z-score
C[C@](Cc1c[nH]c2ccccc12)(NC(=O)OC1[C@H]2C[C@@H]3C[C@@H](C[C@H]1C3)C2)C(=O)NC[C@H](NC(=O)CCC(=O)O)c1ccccc1 (stereo partly drawn): -0.302 z-score
COc1cc(N)c(Cl)cc1C(=O)NC1CCN(CCCOc2ccc(F)cc2)CC1OC (stereo not drawn): 0.253 z-score and 2.51 z-score and -0.142 z-score

Block 3
Structure (SMILES): CN([C@@H]1CCc2c(CC(=O)O)c3ccccc3n2C1)S(=O)(=O)c1ccc(F)cc1
Effect on: cell-free assay
Method: competition with immobilised ligand
Tested at: 1 µM
Endpoint: remaining binding
CDK18 (Homo sapiens, UniProt Q07002): 100%
MAK (Homo sapiens, UniProt P20794): 82%
FLT3 (Homo sapiens, UniProt P36888, F691L/ITD): 96%
DCLK1 (Homo sapiens, UniProt O15075): 82%
TLK2 (Homo sapiens, UniProt Q86UE8): 100%
CAMK1G (Homo sapiens, UniProt Q96NX5): 100%
WNK1 (Homo sapiens, UniProt Q9H4A3): 96%
PRKCE (Homo sapiens, UniProt Q02156): 94%
EIF2AK1 (Homo sapiens, UniProt Q9BQI3): 98%
TESK1 (Homo sapiens, UniProt Q15569): 91%
Tyrosine-protein kinase ABL1, phosphorylated (ABL1, Homo sapiens, UniProt P00519, H396P): 100%
MARK1 (Homo sapiens, UniProt Q9P0L2): 100%
ULK1 (Homo sapiens, UniProt O75385): 96%
STK17A (Homo sapiens, UniProt Q9UEE5): 100%

Block 4
Target: Ribosomal protein S6 kinase alpha-2 (RPS6KA2, Homo sapiens, UniProt Q15349)
Sequence of UniProt Q15349 (whole entry, looked up): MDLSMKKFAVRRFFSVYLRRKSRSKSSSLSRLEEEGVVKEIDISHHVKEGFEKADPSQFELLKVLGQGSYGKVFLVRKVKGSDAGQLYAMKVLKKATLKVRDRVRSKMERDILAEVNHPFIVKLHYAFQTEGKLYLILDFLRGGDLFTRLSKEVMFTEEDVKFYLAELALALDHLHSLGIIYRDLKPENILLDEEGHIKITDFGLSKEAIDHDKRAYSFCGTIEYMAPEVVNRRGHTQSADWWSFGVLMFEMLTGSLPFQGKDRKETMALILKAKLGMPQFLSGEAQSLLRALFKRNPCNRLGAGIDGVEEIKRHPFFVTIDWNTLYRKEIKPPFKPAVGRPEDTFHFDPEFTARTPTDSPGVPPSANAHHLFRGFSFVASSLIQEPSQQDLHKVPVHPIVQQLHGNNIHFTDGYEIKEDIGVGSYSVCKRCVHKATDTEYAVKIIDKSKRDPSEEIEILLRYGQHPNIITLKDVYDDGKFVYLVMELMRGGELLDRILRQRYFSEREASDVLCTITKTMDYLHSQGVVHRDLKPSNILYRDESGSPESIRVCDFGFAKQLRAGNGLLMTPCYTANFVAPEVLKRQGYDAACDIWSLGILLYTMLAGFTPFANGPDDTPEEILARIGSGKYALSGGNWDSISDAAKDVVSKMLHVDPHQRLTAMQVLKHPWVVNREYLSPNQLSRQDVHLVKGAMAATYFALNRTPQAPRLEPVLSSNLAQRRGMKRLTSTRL
Effect on: enzyme activity
Mode: inhibitor
Tested at: 0.5 µM
Relative to: control
Endpoint: remaining activity
NCCNc1ncc(C(N)=O)c(Nc2cccc(C(F)(F)F)c2)n1: 73.8%
CC(C)[C@H](CO)Nc1nc(Nc2cc(N)cc(Cl)c2)c2ncn(C(C)C)c2n1: 48.7%
O=c1c2ccccc2[nH]c(=S)n1CCN1CCC(=C(c2ccc(F)cc2)c2ccc(F)cc2)CC1: 107%
OCC(O)CCON=C1C(c2c(O)[nH]c3ccccc23)=Nc2ccccc21 (stereo not drawn): 12.1%
Nc1[nH]nc2nc3ccccc3nc12: 89.1%
COc1ccc(CNC(=O)Nc2ncc([N+](=O)[O-])s2)cc1: 100%
CCOC(=O)c1c(C)[nH]c(/C=C2\C(=O)Nc3ccccc32)c1C: 71.4%
CO[C@H]1C[C@@H]2CC[C@@H](C)[C@@](O)(O2)C(=O)C(=O)N2CCCC[C@H]2C(=O)O[C@H]([C@H](C)C[C@@H]2CC[C@@H](O)[C@H](OC)C2)CC(=O)[C@H](C)/C=C(\C)[C@@H](O)[C@@H](OC)C(=O)[C@H](C)C[C@H](C)/C=C/C=C/C=C/1C: 89.5%
CNC(=O)c1cc(Oc2ccc(NC(=O)Nc3ccc(Cl)c(C(F)(F)F)c3)cc2)ccn1: 93.3%
COc1ccc(C(=O)Nc2sc3c(c2C(N)=O)CCCC3)cc1OC: 112%
N#CC(C#N)=C(N)/C(C#N)=C/c1ccc(O)cc1: 96.2%
Cn1c2ccccc2c2c3c(c4c5ccccc5n(CCC#N)c4c21)CNC3=O: 0.299%
COc1cc2nccc(Oc3ccc(NC(=S)NC(=O)c4ccccc4C)cc3)c2cc1OC: 91.1%
O=S(=O)(c1cccc2cnccc12)N1CCCNCC1: 79.9%
Cn1sc(=O)n(Cc2ccccc2)c1=O: 104%
O=C1NC(=O)C(c2cn(CCCn3ccnc3)c3ccccc23)=C1Nc1ccccc1: 3.17%
O=C1NC(=O)c2cc(Nc3ccc(F)cc3)c(Nc3ccc(F)cc3)cc21: 98.7%
O=C(CCCc1ccc(-c2ccccc2F)cc1)Nc1ccc(O)cc1: 101%
C#Cc1cccc(Nc2ncnc3cc(OCCOC)c(OCCOC)cc23)c1: 101%
COc1ccc(OC)c2c(=S)c3ccccc3[nH]c12: 87.4%
Cc1ccc(Nc2nccc(N(C)c3ccc4c(C)n(C)nc4c3)n2)cc1S(N)(=O)=O: 93.2%
N#CCCc1ccc2c(c1)-c1[nH]c3ccc([N+](=O)[O-])cc3c1CC(=O)N2: 24.4%
Cc1cccc(-c2[nH]c(C(C)(C)C)nc2-c2ccc3c(c2)OCO3)n1: 96.4%
O=C(O)c1ccc2c3c1cccc3c(=O)n1c3ccccc3nc21: 90.5%

Excerpt of the above (block 4):
O=c1c2ccccc2[nH]c(=S)n1CCN1CCC(=C(c2ccc(F)cc2)c2ccc(F)cc2)CC1: 107%
OCC(O)CCON=C1C(c2c(O)[nH]c3ccccc23)=Nc2ccccc21 (stereo not drawn): 12.1%
Nc1[nH]nc2nc3ccccc3nc12: 89.1%
COc1ccc(CNC(=O)Nc2ncc([N+](=O)[O-])s2)cc1: 100%
CCOC(=O)c1c(C)[nH]c(/C=C2\C(=O)Nc3ccccc32)c1C: 71.4%
CO[C@H]1C[C@@H]2CC[C@@H](C)[C@@](O)(O2)C(=O)C(=O)N2CCCC[C@H]2C(=O)O[C@H]([C@H](C)C[C@@H]2CC[C@@H](O)[C@H](OC)C2)CC(=O)[C@H](C)/C=C(\C)[C@@H](O)[C@@H](OC)C(=O)[C@H](C)C[C@H](C)/C=C/C=C/C=C/1C: 89.5%
